# Experimental data from different studies.
# Compare with care: the assays were run in different laboratories.
# SLC47A1: Multidrug and toxin extrusion protein 1 (SLC47A1, Homo sapiens, UniProt Q96FL8)
# UniProt Q96FL8, sequence (whole entry, looked up): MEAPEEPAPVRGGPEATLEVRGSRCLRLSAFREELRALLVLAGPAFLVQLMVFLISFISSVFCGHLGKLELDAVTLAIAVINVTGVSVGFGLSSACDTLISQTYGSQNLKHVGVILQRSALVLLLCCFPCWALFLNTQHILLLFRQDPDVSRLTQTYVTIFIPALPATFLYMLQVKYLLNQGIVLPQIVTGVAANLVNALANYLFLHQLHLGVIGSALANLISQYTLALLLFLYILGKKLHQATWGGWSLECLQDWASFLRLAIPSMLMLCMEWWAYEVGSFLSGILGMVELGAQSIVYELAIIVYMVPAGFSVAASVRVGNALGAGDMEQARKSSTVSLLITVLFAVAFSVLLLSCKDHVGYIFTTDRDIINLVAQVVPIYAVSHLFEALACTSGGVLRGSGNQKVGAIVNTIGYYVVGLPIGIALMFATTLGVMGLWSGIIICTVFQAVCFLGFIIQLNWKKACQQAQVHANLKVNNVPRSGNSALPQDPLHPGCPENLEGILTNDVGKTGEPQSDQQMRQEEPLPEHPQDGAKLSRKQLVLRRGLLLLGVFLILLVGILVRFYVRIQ
# CYP1A2: Cytochrome P450 1A2 (CYP1A2, Homo sapiens, UniProt P05177)
# UniProt P05177, sequence (whole entry, looked up): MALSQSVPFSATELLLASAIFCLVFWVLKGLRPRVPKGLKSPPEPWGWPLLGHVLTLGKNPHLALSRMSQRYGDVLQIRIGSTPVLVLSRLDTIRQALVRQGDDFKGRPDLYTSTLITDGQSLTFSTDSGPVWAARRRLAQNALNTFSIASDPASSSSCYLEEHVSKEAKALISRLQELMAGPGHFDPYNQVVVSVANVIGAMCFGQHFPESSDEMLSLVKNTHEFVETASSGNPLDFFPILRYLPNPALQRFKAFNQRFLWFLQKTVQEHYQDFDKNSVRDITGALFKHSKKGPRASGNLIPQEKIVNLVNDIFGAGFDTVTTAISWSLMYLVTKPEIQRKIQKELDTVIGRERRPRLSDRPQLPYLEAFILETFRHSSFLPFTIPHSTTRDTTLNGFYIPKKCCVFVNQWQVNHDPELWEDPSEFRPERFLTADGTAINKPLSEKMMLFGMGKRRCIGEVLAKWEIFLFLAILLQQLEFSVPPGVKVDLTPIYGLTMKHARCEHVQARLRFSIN
# KCNH2: Voltage-gated inwardly rectifying potassium channel KCNH2 (KCNH2, Homo sapiens, UniProt Q12809)
# UniProt P45985, sequence (whole entry, looked up): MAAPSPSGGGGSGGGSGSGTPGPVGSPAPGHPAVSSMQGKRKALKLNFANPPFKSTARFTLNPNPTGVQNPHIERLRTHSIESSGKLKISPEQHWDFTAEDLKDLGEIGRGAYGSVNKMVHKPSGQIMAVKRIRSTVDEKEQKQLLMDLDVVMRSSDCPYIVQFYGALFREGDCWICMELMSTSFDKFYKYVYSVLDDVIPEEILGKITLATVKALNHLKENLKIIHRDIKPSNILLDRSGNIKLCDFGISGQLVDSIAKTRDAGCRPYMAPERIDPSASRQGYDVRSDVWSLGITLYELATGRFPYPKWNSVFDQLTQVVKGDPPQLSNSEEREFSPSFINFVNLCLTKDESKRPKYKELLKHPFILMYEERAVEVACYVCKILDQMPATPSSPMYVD
# UniProt P04799, sequence (whole entry, looked up): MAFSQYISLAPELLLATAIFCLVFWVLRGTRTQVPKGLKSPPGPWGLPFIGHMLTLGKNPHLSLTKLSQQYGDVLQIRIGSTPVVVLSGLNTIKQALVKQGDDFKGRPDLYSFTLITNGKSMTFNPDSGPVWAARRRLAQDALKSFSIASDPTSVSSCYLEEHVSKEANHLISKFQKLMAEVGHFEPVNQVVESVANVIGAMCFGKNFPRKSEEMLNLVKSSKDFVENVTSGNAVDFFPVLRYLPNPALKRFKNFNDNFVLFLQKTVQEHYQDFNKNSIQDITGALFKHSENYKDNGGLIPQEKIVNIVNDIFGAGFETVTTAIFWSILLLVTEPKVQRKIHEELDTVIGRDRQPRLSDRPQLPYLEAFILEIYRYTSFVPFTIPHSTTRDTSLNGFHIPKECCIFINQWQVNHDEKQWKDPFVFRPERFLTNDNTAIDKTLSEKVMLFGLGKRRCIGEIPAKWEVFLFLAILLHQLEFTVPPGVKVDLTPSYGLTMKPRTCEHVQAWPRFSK
# UniProt P12821, sequence (whole entry, looked up): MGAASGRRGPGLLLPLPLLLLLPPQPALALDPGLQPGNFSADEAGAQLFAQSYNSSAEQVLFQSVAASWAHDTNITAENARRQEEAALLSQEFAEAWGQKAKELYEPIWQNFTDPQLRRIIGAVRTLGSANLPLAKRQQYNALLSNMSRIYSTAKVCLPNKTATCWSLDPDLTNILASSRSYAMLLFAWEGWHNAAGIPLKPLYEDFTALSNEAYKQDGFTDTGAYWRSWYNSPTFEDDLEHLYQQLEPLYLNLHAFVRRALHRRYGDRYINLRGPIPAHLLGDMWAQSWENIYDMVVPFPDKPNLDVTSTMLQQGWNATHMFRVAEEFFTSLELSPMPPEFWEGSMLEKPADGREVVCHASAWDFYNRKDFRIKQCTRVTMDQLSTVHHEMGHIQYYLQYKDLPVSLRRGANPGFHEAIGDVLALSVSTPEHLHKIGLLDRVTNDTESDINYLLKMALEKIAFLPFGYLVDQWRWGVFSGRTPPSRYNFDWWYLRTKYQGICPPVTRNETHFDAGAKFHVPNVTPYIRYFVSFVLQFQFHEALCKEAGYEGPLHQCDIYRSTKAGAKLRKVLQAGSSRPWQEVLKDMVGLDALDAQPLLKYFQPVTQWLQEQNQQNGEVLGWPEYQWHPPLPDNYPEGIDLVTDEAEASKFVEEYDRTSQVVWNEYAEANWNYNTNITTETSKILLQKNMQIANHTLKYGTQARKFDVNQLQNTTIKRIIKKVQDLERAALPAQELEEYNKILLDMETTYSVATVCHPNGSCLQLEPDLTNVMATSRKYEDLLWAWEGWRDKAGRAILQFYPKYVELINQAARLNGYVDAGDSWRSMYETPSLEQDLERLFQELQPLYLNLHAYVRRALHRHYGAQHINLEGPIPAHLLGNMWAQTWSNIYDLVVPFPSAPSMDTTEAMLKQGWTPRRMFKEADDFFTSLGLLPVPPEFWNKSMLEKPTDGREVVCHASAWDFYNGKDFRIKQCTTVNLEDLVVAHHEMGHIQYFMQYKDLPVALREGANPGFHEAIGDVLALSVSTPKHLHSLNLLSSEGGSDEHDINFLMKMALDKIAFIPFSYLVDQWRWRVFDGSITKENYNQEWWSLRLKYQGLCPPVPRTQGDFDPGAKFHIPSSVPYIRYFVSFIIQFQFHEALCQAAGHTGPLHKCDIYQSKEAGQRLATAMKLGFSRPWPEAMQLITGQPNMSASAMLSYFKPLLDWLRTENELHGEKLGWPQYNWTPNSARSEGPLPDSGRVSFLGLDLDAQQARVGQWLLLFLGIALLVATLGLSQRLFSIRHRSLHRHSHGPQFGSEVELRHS
# UniProt Q14680, sequence (whole entry, looked up): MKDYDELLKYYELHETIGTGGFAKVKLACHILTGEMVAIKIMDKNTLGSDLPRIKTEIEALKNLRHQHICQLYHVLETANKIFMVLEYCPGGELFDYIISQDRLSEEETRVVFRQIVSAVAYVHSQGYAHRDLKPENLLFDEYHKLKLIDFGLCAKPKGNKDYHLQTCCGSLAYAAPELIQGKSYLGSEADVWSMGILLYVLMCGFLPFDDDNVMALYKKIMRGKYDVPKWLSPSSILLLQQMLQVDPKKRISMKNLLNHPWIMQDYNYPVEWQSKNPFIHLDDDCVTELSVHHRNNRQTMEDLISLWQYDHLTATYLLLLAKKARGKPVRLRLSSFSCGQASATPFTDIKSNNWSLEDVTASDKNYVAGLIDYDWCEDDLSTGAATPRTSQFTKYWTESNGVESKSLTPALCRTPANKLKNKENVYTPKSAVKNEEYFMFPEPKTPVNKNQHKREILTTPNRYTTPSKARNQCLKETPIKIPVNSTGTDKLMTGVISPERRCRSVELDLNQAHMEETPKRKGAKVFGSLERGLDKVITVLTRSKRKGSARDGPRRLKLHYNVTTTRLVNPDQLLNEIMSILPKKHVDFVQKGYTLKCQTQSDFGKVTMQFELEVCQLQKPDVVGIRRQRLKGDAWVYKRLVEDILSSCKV
SMILES,tested on,test,test system,setting,scale,endpoint,result
CN1CC[C@@H](c2c(O)cc(O)c3c(=O)cc(-c4ccc(C(F)(F)F)cc4Cl)oc23)[C@@H]1CO,,refers to: Hypoalbuminemia,relapsed AML,"oral, 200 mg, grade 3-4, intermittent dosing",,patients with adverse event,20%
C[C@H]1CN(c2n[nH]c3nc(N[C@H]4CC[C@H](NS(=O)(=O)CCC(F)(F)F)CC4)ncc23)CCO1,"Maternal embryonic leucine zipper kinase (MELK, Homo sapiens, UniProt Q14680)","inhibitor, Kinobeads competition profiling",,0.032 µM,relative to: vehicle,relative abundance,1.03
CCOC(=O)C1=C[C@@H](OC(CC)CC)[C@H](NC(C)=O)[C@@H](N)C1,SLC47A1,"transport, inhibitor",transiently transfected cells,"100 µM, 10 (unit not given), with: metformin",,inhibition,36.5%
COc1cc2c(Oc3ccc4[nH]c(C)cc4c3F)ccnc2cc1OCC1(N)CC1,,,paediatric recurrent refractory sarcoma,12 mg,,grade 3 Proteinuria,0%
Nc1ccc2c(c1)CN1C(=O)c3ccccc3C1=N2,"Cytochrome P450 1A2 (Cyp1a2, Rattus norvegicus, UniProt P04799)",substrate,recombinant rat CYP1A2 microsomes,"10 µM, 120 min, with: NADPH",,metabolised fraction,31%
CC1(C)C(C=C(Cl)Cl)C1C(=O)OC(C#N)c1ccc(F)c(Oc2ccccc2)c1 (stereo not drawn),human CYP2C9,IVIVE from expressed enzymes,"human, liver, in vivo scaled","0.1 µM, age-specific",,enzyme contribution to CLint,1.99%
CC[C@H](C)[C@@H]1NC(=O)[C@@H]2CCCN2C(=O)[C@H](CC(C)C)NC(=O)[C@H](CC(C)C)NC(=O)CNC(=O)[C@@H](NC(=O)[C@@H](NC(=O)[C@H](CC(=O)O)NC(=O)CNC(=O)[C@@H](NC(=O)[C@H](C)NC(=O)CNC(=O)[C@H](CCCCN)NC(=O)[C@H](CC(C)C)NC(=O)[C@H](CC(C)C)NC(=O)[C@H](CCCCN)NC(=O)CNC(=O)[C@@H](NC(=O)[C@@H](N)CC(C)C)C(C)C)C(C)C)C(C)C)CSSC[C@@H](C(=O)O)NC1=O,,"RNA-seq, refers to: Ptprc mRNA","mouse traumatic brain injury, frontal cortex and hippocampus",dose not given,relative to: TBI plus compound vs TBI,log2 fold change,-2.27
CO[C@H]1C[C@@H]2CC[C@@H](C)[C@@](O)(O2)C(=O)C(=O)N2CCCC[C@H]2C(=O)O[C@H]([C@H](C)C[C@@H]2CC[C@@H](OC(=O)NCCOCCOCCOCCOCCOCCOCCOCCOCCC(=O)N3CCc4cc(Cn5nc(-c6ccc7oc(N)nc7c6)c6c(N)ncnc65)ccc4C3)[C@H](OC)C2)C[C@@H](O)[C@H](C)/C=C(\C)[C@@H](O)[C@@H](OC)C(=O)[C@H](C)C[C@H](C)/C=C/C=C/C=C/1C,,phase 1 dose escalation,advanced solid tumour patients,"intravenous, 6 mg weekly, grade ≥3",,any TEAE incidence,66.7%
CC1(C)SC2C(NC(=O)C(NC(=O)C3=C(O)C(Cc4ccsc4)NC3=O)c3ccccc3)C(=O)N2C1C(=O)O (stereo not drawn),Fe(III),"binding, EDTA competition absorbance",,with: EDTA 1.969 mM,,equilibrium constant,9.12e+06 M⁻²
CCC(CC)COC(=O)[C@H](C)N[P@](=O)(OC[C@H]1O[C@@](C#N)(c2ccc3c(N)ncnn23)[C@H](O)[C@@H]1O)Oc1ccccc1,SLC47A1,"transport, inhibitor",transiently transfected cells,"100 µM, 10 (unit not given), with: metformin",,inhibition,85.8%
COc1cc(Nc2ncc(F)c(Nc3ccc4c(n3)NC(=O)C(C)(C)O4)n2)cc(OC)c1OC,"Angiotensin-converting enzyme (ACE, Homo sapiens, UniProt P12821)",,,,,IC50,> 10 µM
CS(=O)(=O)Nc1ncn(-c2cc(F)c(COc3ccc(OS(=O)(=O)F)cc3)c(F)c2)n1,CYP1A2,,,,,IC50,> 50 µM
NC(=O)c1ncn([C@@H]2O[C@H](CO)[C@@H](O)[C@H]2O)n1,SLC47A1,"transport, inhibitor",transiently transfected cells,"100 µM, 10 (unit not given), with: metformin",,inhibition,-4.5%
COc1ccc(CCC2CCCC(CCc3ccc(OC)cc3)N2C[C@@H](O)CO)cc1.Cl (stereo in doubt),KCNH2,"potassium current, inhibitor",HEK293,,,Hill coefficient,1.1
CCCC[C@H]1C(=O)N(C)[C@@H](CCCC)C(=O)N[C@@H](CCCCNC(=O)CN2CCN(CC(=O)O)CCN(CC(=O)O)CC2)C(=O)N[C@H](C(=O)NCC(N)=O)CSCC(=O)N[C@@H](Cc2ccc(O)cc2)C(=O)N(C)[C@@H](C)C(=O)N[C@@H](CC(N)=O)C(=O)N2CCC[C@H]2C(=O)N[C@@H](Cc2c[nH]cn2)C(=O)N[C@@H](CCC(=O)O)C(=O)N2C[C@H](O)C[C@H]2C(=O)N[C@@H](Cc2c[nH]c3ccccc23)C(=O)N[C@@H](CO)C(=O)N[C@@H](Cc2cn(CC(=O)O)c3ccccc23)C(=O)N1C [gallium-68 labelled],"Programmed cell death 1 ligand 1 (CD274, Homo sapiens, UniProt Q9NZQ7)",PET,"humanised NOG-EXL mice, U-87 MG xenograft","day D1 after antibody, with: anti-PD-L1 antibody 10 mg/kg",,tumour uptake,0.8 %ID/g
CC[C@H](C)[C@H](NC(=O)[C@H](Cc1ccccc1)NC(=O)[C@H](CCC(=O)O)NC(=O)[C@H](CCCNC(=N)N)NC(=O)[C@H](C)NC(=O)[C@H](C)NC(=O)[C@H](CCC(N)=O)NC(=O)[C@H](CCC(=O)O)NC(=O)[C@H](CCC(=O)O)NC(=O)[C@H](CC(C)C)NC(=O)[C@H](Cc1ccc(O)cc1)NC(=O)[C@H](CO)NC(=O)[C@H](CO)NC(=O)[C@@H](NC(=O)[C@H](CC(=O)O)NC(=O)[C@H](CO)NC(=O)[C@@H](NC(=O)[C@H](Cc1ccccc1)NC(=O)[C@@H](NC(=O)CNC(=O)[C@H](CCC(=O)O)NC(=O)[C@H](C)NC(=O)CCc1c[nH]cn1)[C@@H](C)O)[C@@H](C)O)C(C)C)C(=O)N[C@@H](C)C(=O)N[C@@H](Cc1c[nH]c2ccccc12)C(=O)N[C@@H](CC(C)C)C(=O)N[C@H](C(=O)N[C@@H](CCCNC(=N)N)C(=O)NCC(=O)N[C@@H](CCCNC(=N)N)C(=O)N[C@@H](CCCCNC(=O)COCCOCCNC(=O)COCCOCCNC(=O)CC[C@H](NC(=O)CCCCCCCCCCCCCCCCC(=O)O)C(=O)O)C(=O)NCC(=O)NCC(=O)N[C@@H](CO)C(=O)N[C@@H](CCCCNc1c(NCCCCCN(O)C(=O)CCC(=O)NCCCCCN(O)C(=O)CCC(=O)NCCCCCN(O)C(C)=O)c(=O)c1=O)C(=O)O)C(C)C [zirconium-89 labelled],,,"rat, knee","intravenous, 3 nmol/kg, 72 h",,tissue uptake,0.22 %ID/g
CC(C)CC(=O)OC[C@H]1O[C@@](C#N)(c2ccc3c(N)ncnn23)[C@H](O)[C@@H]1O,"ATP-dependent translocase ABCB1 (ABCB1, Homo sapiens, UniProt P08183)",,Caco-2,"9 µM, 2 h",,Papp A to B,0.187 ×10⁻⁶ cm/s
CC[C@H]1OC(=O)[C@H](C)[C@@H](O[C@H]2C[C@@](C)(OC)[C@@H](O)[C@H](C)O2)[C@H](C)[C@@H](O[C@@H]2O[C@H](C)C[C@H](N(C)C)[C@H]2O)[C@](C)(O)C[C@@H](C)CN(C)[C@H](C)[C@@H](O)[C@]1(C)O,SLC47A1,"transport, inhibitor",,"50 µM, with: metformin",,inhibition,12.8%
CC(C)(O)c1ccccc1CC[C@@H](SCC1(CC(=O)O)CC1)c1cccc(/C=C/c2ccc3ccc(Cl)cc3n2)c1,CYP1A2,inhibitor,human liver microsomes,"10 µM, pH 7.4, with: phenacetin",,inhibition,25%
COc1ccc(N2C(=O)N(c3c(C)cccc3Cl)Cc3cnc(Nc4ccc(C5CCN(C)CC5)cc4OC)nc32)nc1,"Dual specificity mitogen-activated protein kinase kinase 4 (MAP2K4, Homo sapiens, UniProt P45985)",kinase activity,,0.5 µM,,inhibition,2.46%
CCCCCCCCc1ccc(CCC(N)(CO)CO)cc1,SLC47A1,"transport, inhibitor",transiently transfected cells,"100 µM, 10 (unit not given), with: metformin",,inhibition,10.5%
O=C(Nc1cnccc1Cl)N1CCN(Cc2ccc3c(c2)OC(F)(F)O3)CC1,KCNH2,radioligand binding,,"50 µM, human channel, with: [3H]astemizole",,inhibition of binding,69%
CC1(C)[C@H](C(=O)OCc2cccc(Oc3ccccc3)c2)[C@@H]1C=C(Cl)Cl,human CYP2C9,IVIVE from expressed enzymes,"human, liver, in vivo scaled","0.1 µM, age-specific",,enzyme contribution to CLint,2.19%
O=c1ccc2ncc(=O)n3c2n1C[C@H]3CN1CCC(NCc2cc3c(cn2)OCCC3)CC1,SLC47A1,,SLC47A1-overexpressing cells,,relative to: control cells,uptake ratio,5 fold

# Repeated from above:
SMILES,tested on,test,test system,setting,scale,endpoint,result
C[C@H]1CN(c2n[nH]c3nc(N[C@H]4CC[C@H](NS(=O)(=O)CCC(F)(F)F)CC4)ncc23)CCO1,"Maternal embryonic leucine zipper kinase (MELK, Homo sapiens, UniProt Q14680)","inhibitor, Kinobeads competition profiling",,0.032 µM,relative to: vehicle,relative abundance,1.03
CCOC(=O)C1=C[C@@H](OC(CC)CC)[C@H](NC(C)=O)[C@@H](N)C1,SLC47A1,"transport, inhibitor",transiently transfected cells,"100 µM, 10 (unit not given), with: metformin",,inhibition,36.5%
COc1cc2c(Oc3ccc4[nH]c(C)cc4c3F)ccnc2cc1OCC1(N)CC1,,,paediatric recurrent refractory sarcoma,12 mg,,grade 3 Proteinuria,0%
